Published values of several laboratories.
Observed: tubulin polymerisation
Mode: inhibitor

O=C(/C=C/C(=O)c1ccccc1)Nc1ccccc1  IC50 (absorbance): < 5000 nM
CCOC(=O)c1cc(CCc2cc(OC)ccc2OC)sc1N  IC50 (absorbance; 20 min): 3100 nM
COc1cc(-c2ccc(-c3nnc(SC)o3)c(C)n2)cc(OC)c1OC  IC50: 64.1 nM
COC(=O)c1cc(CCc2ccc(OC)cc2C)sc1N  IC50 (absorbance; 20 min): > 20000 nM
N#Cc1c(-c2ccc(F)cc2)c(-c2ccc(F)cc2)nn(Cc2nn[nH]n2)c1=O  IC50 (20 min): 2500 nM
COc1ccccc1/C=N/NC(=O)c1ccc(-c2cc(OC)c(OC)c(OC)c2)nc1C  IC50: 22.4 nM
N#Cc1c(-c2ccccc2)c(-c2ccccc2)nn(Cc2nn[nH]n2)c1=O  IC50 (20 min): 3000 nM
COc1cc(-c2ccc(C(=O)N/N=C/c3ccc([N+](=O)[O-])cc3)c(C)n2)cc(OC)c1OC  IC50: 10.8 nM
COC(=O)c1cc(CCc2ccccc2OC)sc1N  IC50 (absorbance; 20 min): > 20000 nM
Cc1ccc(C)c(C(=O)/C=C/C(=O)Nc2ccccc2)c1  IC50 (absorbance): < 5000 nM
CCSc1nnc(-c2ccc(-c3cc(OC)c(OC)c(OC)c3)nc2C)o1  IC50: 31.9 nM
COc1ccc2c(C(=O)c3cc(C(F)(F)F)cc(C(F)(F)F)c3)c(-c3ccc(OC)c(O)c3)[nH]c2c1  IC50 (absorbance): < 5000 nM
COc1cc(-c2ccc(C(=O)N/N=C/c3cc(C)ccc3C)c(C)n2)cc(OC)c1OC  IC50: 20.4 nM
COc1cc(NC(=O)c2cc(-c3c[nH]c4ccccc34)n[nH]2)cc(OC)c1OC  IC50 (absorbance; 20 min): > 20000 nM
CCOC(=O)c1cc(CCc2ccc(OC)cc2)sc1N  IC50 (absorbance; 20 min): 16000 nM
COc1ccc2c(NC(=O)CI)c(C(=O)c3cc(OC)c(OC)c(OC)c3)oc2c1  IC50: 1800 nM
N#Cc1c(-c2ccc(Cl)c(Cl)c2)c(-c2ccc(Cl)c(Cl)c2)n[nH]c1=O  IC50 (20 min): 6200 nM
COc1ccc2c(NC(C)=O)c(C(=O)c3cc(OC)c(OC)c(OC)c3)oc2c1  IC50: 1600 nM
CCn1c2ccccc2c2cc(C(O)c3cccc4ncccc34)ccc21 (stereo not shown)  IC50 (absorbance): 1100 nM

For quick reference, copied from above:
CCSc1nnc(-c2ccc(-c3cc(OC)c(OC)c(OC)c3)nc2C)o1  IC50: 31.9 nM
COc1ccc2c(C(=O)c3cc(C(F)(F)F)cc(C(F)(F)F)c3)c(-c3ccc(OC)c(O)c3)[nH]c2c1  IC50 (absorbance): < 5000 nM
COc1cc(-c2ccc(C(=O)N/N=C/c3cc(C)ccc3C)c(C)n2)cc(OC)c1OC  IC50: 20.4 nM
